Measurements from different studies.
Each line is one published result; not all experiments were run side by side.

| Structure (SMILES) | test | test system | setting | Vz/F [L] |
| --- | --- | --- | --- | --- |
| CNC(=O)n1ccc2cc(Oc3ccnc(NC(=O)c4ccc(C5CCN(CCO)CC5)cc4)c3)c(OCCOC)cc21 | – | healthy human, plasma | oral, 35 mg, geometric mean, alone | 13700 |
| Fc1ccc([C@@H]2CCNC[C@H]2COc2ccc3c(c2)OCO3)cc1 | – | human, all CYP2D6 genotypes | oral, 20 mg, steady state, geometric mean | 1130 |
| C[C@@H](c1ccc2nccn2c1)n1nnc2ncc(-c3cnn(C)c3)nc21 | – | human, plasma | oral, cycle 2 day 1, multiple doses, all | 218 |
| CN(C)C(=O)c1cc2cnc(Nc3ccc(N4CCNCC4)cn3)nc2n1C1CCCC1 | – | human, end-stage renal disease, plasma | oral, 400 mg, single dose, geometric mean | 2300 |
| C[C@H](Oc1ccc(Br)cc1-c1ccon1)C(=O)O | – | healthy male humans, plasma | oral, 200 mg once daily, day 10 | 37.2 |
| C#C[C@]1(CO)O[C@@H](n2cnc3c(N)nc(F)nc32)C[C@@H]1O | – | human, plasma | oral, 15 mg, single dose, geometric mean | 2400 |
| CN1C(=O)[C@@H](NC(=O)c2nnc(Cc3ccccc3)[nH]2)COc2cccnc21 | – | healthy human, fasted, plasma | oral, 30 mg single dose, geometric mean | 44.1 |
| CC(C)c1nc(N(C)S(C)(=O)=O)nc(-c2ccc(F)cc2)c1/C=C/[C@@H](O)C[C@@H](O)CC(=O)O | – | healthy human subjects, plasma | oral, 10 mg, arithmetic mean, together with: fruquintinib 5 mg | 7900 |
| CC1(C)CC[C@]2(NC(=O)C(C)(F)F)CC[C@]3(C)[C@H](C(=O)C=C4[C@@]5(C)C=C(C#N)C(=O)C(C)(C)[C@@H]5CC[C@]43C)[C@@H]2C1 | – | human | oral, 150 mg, single dose alone | 14600 |
| [H]/N=C(/N)c1ccc(NCc2nc3cc(C(=O)N(CCC(=O)O)c4ccccn4)ccc3n2C)cc1 | – | healthy human subjects, plasma | oral, 150 mg, dabigatran etexilate alone, arithmetic mean | 1910 |
| O=C1CC[C@H](N2Cc3cc(N4CCN(CC5CCN(c6ccc([C@@H]7c8ccc(O)cc8CC[C@@H]7c7ccccc7)cc6)CC5)CC4)ccc3C2=O)C(=O)N1 | – | human | oral, 200 mg, together with: rosuvastatin 10 mg | 330 |
| CC(C)c1nc(N(C)S(C)(=O)=O)nc(-c2ccc(F)cc2)c1/C=C/[C@@H](O)C[C@@H](O)CC(=O)O | – | human | oral, substrate with omaveloxolone, together with: omaveloxolone once daily | 7470 |
| Cc1cc(C)c(CNC(=O)c2cc(Cl)c3c(c2C)O[C@@](C)([C@H]2CC[C@H](N(C)C)CC2)O3)c(=O)[nH]1 | mean | healthy male humans, plasma | oral, 25 mg, day 12, together with: fluconazole | 806 |
| CCOc1cc(CC(=O)N[C@@H](CC(C)C)c2ccccc2N2CCCCC2)ccc1C(=O)O | – | human | oral, substrate with omaveloxolone, together with: omaveloxolone once daily | 168 |
| CC(C)C[C@H](NC(=O)[C@H](CC(C)C)NC(=O)[C@H](Cc1c[nH]c2ccccc12)NC(=O)[C@H](CCC(=O)O)NC(=O)[C@@H](NC(=O)[C@H](Cc1ccccc1)NC(=O)[C@H](CCC(=O)O)NC(=O)[C@H](CCCCNC(=O)COCCOCCNC(=O)COCCOCCNC(=O)CC[C@H](NC(=O)CCCCCCCCCCCCCCCCCCC(=O)O)C(=O)O)NC(=O)[C@H](C)NC(=O)[C@H](CCCCN)NC(=O)[C@H](CCCCN)NC(=O)[C@H](CCC(=O)O)NC(=O)[C@H](CC(=O)O)NC(=O)[C@H](CC(C)C)NC(=O)[C@H](Cc1ccc(O)cc1)NC(=O)[C@H](CCCCN)NC(=O)[C@H](CO)NC(=O)[C@H](Cc1ccc(O)cc1)NC(=O)[C@H](CC(=O)O)NC(=O)[C@H](CO)NC(=O)[C@@H](NC(=O)[C@H](Cc1ccccc1)NC(=O)[C@@H](NC(=O)CNC(=O)[C@H](CCC(N)=O)NC(=O)C(C)(C)NC(=O)[C@@H](N)Cc1c[nH]cn1)[C@@H](C)O)[C@@H](C)O)C(C)C)C(=O)N[C@@H](CCC(=O)O)C(=O)NCC(=O)NCC(=O)N1CCC[C@H]1C(=O)N[C@@H](CO)C(=O)N[C@@H](CO)C(=O)NCC(N)=O | – | human, plasma | subcutaneous, 16 mg once weekly, week 20, geometric mean | 6.5 |
| C=CC(=O)N1C[C@H](Nc2ncnc3[nH]ccc23)CC[C@@H]1C | – | human, plasma | oral, 50 mg single dose, alone without rifampicin | 192 |
| Cn1cc(-c2cn3nccc3c(-c3cnn([C@]4(CC#N)C[C@@H](C#N)C4)c3)n2)cn1 | – | healthy human, plasma | 30 mg once daily, day 10, multiple dose, fed, geometric mean | 434 |
| CNC(=O)c1c(C)oc2cc(Oc3ncnc4cc(OC)c(OC)cc34)ccc12 | – | healthy human subjects, plasma | oral, 5 mg, arithmetic mean, together with: dabigatran etexilate 150 mg | 43.4 |

For quick reference, copied from above:
| Structure (SMILES) | test | test system | setting | Vz/F [L] |
| --- | --- | --- | --- | --- |
| C=CC(=O)N1C[C@H](Nc2ncnc3[nH]ccc23)CC[C@@H]1C | – | human, plasma | oral, 50 mg single dose, alone without rifampicin | 192 |
| Cn1cc(-c2cn3nccc3c(-c3cnn([C@]4(CC#N)C[C@@H](C#N)C4)c3)n2)cn1 | – | healthy human, plasma | 30 mg once daily, day 10, multiple dose, fed, geometric mean | 434 |
